Assay results pooled from the literature.
Numbered parts are unrelated; each lists some results of a single study. Several values in a cell are separate wells, animals, samples, runs or records.
UniProt P08588, sequence (whole entry, looked up): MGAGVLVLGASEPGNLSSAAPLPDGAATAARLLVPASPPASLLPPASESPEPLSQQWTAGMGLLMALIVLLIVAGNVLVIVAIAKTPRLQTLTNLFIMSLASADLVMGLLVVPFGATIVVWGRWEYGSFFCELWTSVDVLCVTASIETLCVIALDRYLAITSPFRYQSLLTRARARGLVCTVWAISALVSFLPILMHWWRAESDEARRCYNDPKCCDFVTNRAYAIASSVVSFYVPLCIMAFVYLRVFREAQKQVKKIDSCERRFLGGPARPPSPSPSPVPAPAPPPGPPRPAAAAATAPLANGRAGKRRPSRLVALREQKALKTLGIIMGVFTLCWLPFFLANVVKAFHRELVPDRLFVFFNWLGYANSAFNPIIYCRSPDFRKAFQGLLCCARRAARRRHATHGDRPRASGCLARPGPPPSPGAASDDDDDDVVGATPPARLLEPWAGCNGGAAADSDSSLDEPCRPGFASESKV

Study 1
Target: D(2) dopamine receptor (DRD2, Homo sapiens, UniProt P14416)
UniProt P14416, sequence (whole entry, looked up): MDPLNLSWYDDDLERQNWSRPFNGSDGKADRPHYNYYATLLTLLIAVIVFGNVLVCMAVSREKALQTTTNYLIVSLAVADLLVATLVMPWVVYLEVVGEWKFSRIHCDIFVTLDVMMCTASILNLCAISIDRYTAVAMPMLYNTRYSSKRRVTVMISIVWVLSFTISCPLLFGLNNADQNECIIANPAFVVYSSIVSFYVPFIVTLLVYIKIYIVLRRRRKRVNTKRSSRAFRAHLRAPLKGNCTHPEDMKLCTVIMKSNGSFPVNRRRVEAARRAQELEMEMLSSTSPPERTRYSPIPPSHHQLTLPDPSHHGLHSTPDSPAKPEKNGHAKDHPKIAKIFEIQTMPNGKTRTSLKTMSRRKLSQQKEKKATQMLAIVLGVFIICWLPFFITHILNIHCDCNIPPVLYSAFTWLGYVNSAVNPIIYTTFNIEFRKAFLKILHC
Observed: binding
Technique: radioligand binding
Concentration: 10 µM
With CC(=O)Nc1nc(CN2CCC[C@H](Cc3cc(C)nc(C)c3)C2)cs1 the inhibition was 8.04%.
The inhibition of CCOC(=O)c1cc2cc(-c3cc(C(=O)NCc4ccc(C(=O)O)cc4)nn3C)ccc2[nH]1 is reported as -29%.
O=C(NC[C@@H]1[C@H]2CN(C(=O)OCc3cc(C(F)(F)F)cc(C(F)(F)F)c3)C[C@@H]12)c1ccc2[nH]nnc2c1 gave an inhibition of 7.71%.
With Cc1cc(C)c(-n2ccn3nc(-c4cccnc4)cc23)cc1NC(=O)c1cc(C#N)cc(S(F)(F)(F)(F)F)c1 the inhibition was 8.74%.
Cc1c[nH]c2nccc(Oc3c(F)cc(Nc4cc(Cl)nc(N)n4)cc3F)c12 gave an inhibition of -4.56%.
With CN1CCN(C(=O)C(C)(C)c2ccc(C(=O)Nc3cn4cc(-c5ccncc5)ccc4n3)cc2)CC1 the inhibition was 10.8%.
For CN(C)C(=O)Cn1cc(-c2nc([C@@](C)(c3ccc(-c4cnc(N)nc4)cc3)C3CC3)no2)cn1, the inhibition was 13.6%.
COc1cc(-c2cn(C3CCc4ccccc4N(CC(F)(F)F)C3=O)nn2)ccc1-n1ccc(C)n1 (stereo not drawn) gave an inhibition of 7.85%.
With O=C(Nc1cccnn1)N1CCC(=Cc2cccc(Oc3ccc(C(F)(F)F)cn3)c2)CC1 the inhibition was 1.84%.
With O=C([C@H]1C[C@H](O)CN1c1ccc(Cl)cc1)N1CC2COCC(C1)N2Cc1ccc(Cl)cc1 the inhibition was -16.5%.

Study 2
Target: Prothrombin, mature alpha-thrombin (F2, Homo sapiens, UniProt P00734)
Technique: aptamer microarray, sandwich
Molecule type: DNA with 2'F-ANA
Medium: in vitro
Concentration: 200 nM
Notes: whole 15-mer aptamer, many near background
Together with: Cy3 exosite-II aptamer, 400 nM
Direction: higher = stronger binding
Sequence: GGTTGGTGTGGTTGG
`2'F-ANA at 1 4 5 8 12 13 15`: “mean fluorescence intensity” 112 a.u.
Under “mean fluorescence intensity”, `2'F-ANA at 4 5 6 7 8 9 10 11 12 14` is recorded as 48.6 a.u.
`2'F-ANA at 1 6 8 9 10 11`: “mean fluorescence intensity” 52.1 a.u.
`2'F-ANA at 3 4 6 7 8 10 11 13 14 15` — result for “mean fluorescence intensity”: 146 a.u.
For `2'F-ANA at 1 6 7 8 12 13 14 15`, “mean fluorescence intensity” read 74.4 a.u.
Under “mean fluorescence intensity”, `2'F-ANA at 2 3 4 5 6 10 11 15` is recorded as 53.5 a.u.
For `2'F-ANA at 2 4 5 6 7 8 9 10 11 13 15`, “mean fluorescence intensity” read 99.1 a.u.
For `2'F-ANA at 1 2 4 5 6 8 10 11 13`, “mean fluorescence intensity” read 48.3 a.u.

Further values, each from its own experiment
For COC(=O)[C@H](Cc1cccc(C(=N)N)c1)[C@@H](C)NC(=O)c1ccc(-c2cc[n+]([O-])cc2)cc1, the EC50 was no less than 100 µM (Beta-1 adrenergic receptor (ADRB1, Homo sapiens, UniProt P08588); agonist).
With CCN(CC)CCCC(C)Nc1ccnc2cc(Cl)ccc12 (stereo not drawn) the nuclei count was 2.36 z-score and 2.17 z-score and 4.02 z-score (mouse MPNST tumor cells; high-content nuclear imaging, item: cell number; 10 µM, 12 h, mean of 2 replicates; reference: plate mean, higher = more cells).
With O=C(O)[C@H]1/C(=C/CO)O[C@@H]2CC(=O)N21 the infection rate was 103% (Plasmodium berghei; inhibitor; Huh-7, GFP-expressing sporozoites, liver stage; 10 µM, 24 h; reference: untreated control).
The remaining compound of Cc1c(C)n(CCN2CCOCC2)c2ncn3nc(-c4ccc(Cl)cc4Cl)nc3c12 is reported as greater than 100% (mouse, microsomes or S9; 2 µM, 0.5 h).
The nuclei count of CN(C)CCCC1(c2ccc(F)cc2)OCc2cc(C#N)ccc21 (stereo not drawn) is reported as 3.4 z-score and 3.58 z-score (mouse MPNST tumor cells; high-content nuclear imaging, item: cell number; 10 µM, 12 h, mean of 2 replicates; reference: plate mean, higher = more cells).
`ALDH1L1 (Homo sapiens, UniProt O75891)` — result for cross-linked residues: “K469 to K38” (RAN (Homo sapiens, UniProt P62826); cross-linking MS; cells; together with: BSPNO).

A few entries again (further values, each from its own experiment):
The remaining compound of Cc1c(C)n(CCN2CCOCC2)c2ncn3nc(-c4ccc(Cl)cc4Cl)nc3c12 is reported as greater than 100% (mouse, microsomes or S9; 2 µM, 0.5 h).
For COC(=O)[C@H](Cc1cccc(C(=N)N)c1)[C@@H](C)NC(=O)c1ccc(-c2cc[n+]([O-])cc2)cc1, the EC50 was no less than 100 µM (Beta-1 adrenergic receptor (ADRB1, Homo sapiens, UniProt P08588); agonist).
